Published values gathered from unrelated publications.
Numbered parts are unrelated; each lists some results of a single study. Positions count from the first letter of the parent shown.

Set 1 — method: DHFR PCA, deep sequencing; medium: yeast; with: (+)-ABA 0.032 µM; relative to: wild-type fitted maximum; reading: higher = stronger binding
Target: ABI1, truncated, D143A, DHFR fusion (Arabidopsis thaliana)
Notes: methotrexate growth selection, single substitutions
Starting sequence: PYL1, truncated, DHFR fusion (Arabidopsis thaliana); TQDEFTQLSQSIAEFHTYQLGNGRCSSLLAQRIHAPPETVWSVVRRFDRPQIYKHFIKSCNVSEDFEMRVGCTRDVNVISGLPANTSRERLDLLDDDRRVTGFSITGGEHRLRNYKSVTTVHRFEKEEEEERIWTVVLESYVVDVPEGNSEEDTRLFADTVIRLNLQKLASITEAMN
Variant	relative binding score [%]
Q2N	19.8
F15A	-2.28
T6L	33.6
R49C	24.7
R46C	-2.75
R69V	34.3
F103G	0.687
E67K	18.5
V78T	17
D48Y	1.94
R45Y	-0.826
H122V	1.84
L28R	4.58
R163G	8.06
P146R	5.58
V40E	2.33
P146S	9.78
P83R	12.8
A170F	-40.3
C60N	-1.85
C25H	-10.3
T1W	20.5
V70Y	3.43

Set 2 — target: FOSL1, bZIP domain (human); method: DHFR protein complementation; medium: yeast; relative to: wild-type JUN-FOS pair; reading: higher = stronger binding
Notes: single substitutions, most at no-binding floor
Starting sequence: JUN, bZIP domain (human); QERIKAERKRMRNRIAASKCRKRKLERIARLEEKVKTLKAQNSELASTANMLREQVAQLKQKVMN; partner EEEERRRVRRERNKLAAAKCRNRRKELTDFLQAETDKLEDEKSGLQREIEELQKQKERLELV
Variant	binding fitness [natural log]
K34Y	-0.489
A29T	-0.466
Q55A	-0.385
E44W	-0.973
E44A	-0.399
N42H	-1.25
L31G	-1.37
S47P	-1.34
A49M	-0.697
K36L	-0.484
R30W	-0.353
R30T	-0.133
T37F	-0.43
K36C	-0.412

Set 3 — method: universal PBM; form: double-stranded DNA, one strand shown; medium: in vitro; concentration: 600 nM; reading: higher = stronger binding
Target: Sal-like protein 4, full length isoform A (SALL4, Homo sapiens, UniProt Q9UJQ4, residues 1-1053)
UniProt Q9UJQ4, sequence (whole entry, looked up): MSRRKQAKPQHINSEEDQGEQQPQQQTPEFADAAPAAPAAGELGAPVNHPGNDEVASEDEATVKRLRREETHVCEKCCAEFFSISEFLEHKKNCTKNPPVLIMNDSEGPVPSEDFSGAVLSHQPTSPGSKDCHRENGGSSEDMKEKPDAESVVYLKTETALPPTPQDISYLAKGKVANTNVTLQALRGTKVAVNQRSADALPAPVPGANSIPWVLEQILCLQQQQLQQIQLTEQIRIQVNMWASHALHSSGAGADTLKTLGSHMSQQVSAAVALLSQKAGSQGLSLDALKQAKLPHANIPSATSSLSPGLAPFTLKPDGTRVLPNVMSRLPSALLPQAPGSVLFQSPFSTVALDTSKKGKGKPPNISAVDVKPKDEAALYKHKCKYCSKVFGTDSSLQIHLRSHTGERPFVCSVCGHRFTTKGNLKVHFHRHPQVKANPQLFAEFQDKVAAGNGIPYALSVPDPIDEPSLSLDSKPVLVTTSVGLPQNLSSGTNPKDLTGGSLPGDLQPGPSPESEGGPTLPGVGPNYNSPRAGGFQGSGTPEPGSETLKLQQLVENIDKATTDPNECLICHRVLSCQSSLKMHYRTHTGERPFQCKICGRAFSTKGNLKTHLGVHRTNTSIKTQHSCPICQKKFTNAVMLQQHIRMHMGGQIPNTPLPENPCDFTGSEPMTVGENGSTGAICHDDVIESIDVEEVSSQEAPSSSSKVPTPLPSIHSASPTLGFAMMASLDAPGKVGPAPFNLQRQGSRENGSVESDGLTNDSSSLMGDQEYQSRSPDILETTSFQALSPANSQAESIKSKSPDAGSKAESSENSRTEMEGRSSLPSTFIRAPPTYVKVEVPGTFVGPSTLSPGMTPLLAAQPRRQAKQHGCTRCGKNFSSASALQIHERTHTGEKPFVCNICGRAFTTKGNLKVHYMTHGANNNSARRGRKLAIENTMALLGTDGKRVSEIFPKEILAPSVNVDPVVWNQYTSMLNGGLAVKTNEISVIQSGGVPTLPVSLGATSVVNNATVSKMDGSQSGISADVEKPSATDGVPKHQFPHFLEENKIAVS
Notes: 8-mer, flanks averaged, mean of replicates
Strand	E-score
ATCGTTGC	-0.0174
AAGCCATC	0.0307
AATAGCTG	0.0462
GGCAAATA	0.252
AGGTCAGC	-0.106
ATCCCGGG	-0.298
CACTTTCC	-0.00993
ACAGTTAT	0.293
ATGCCGTA	-0.0453
GAGTGCAA	0.00734
CCAGTCAA	-0.0976
GTTAAATA	0.334
CACGATGA	0.0553
ATTTGCTC	0.158
GCAAGCAC	-0.137
CAGCGGAG	-0.288
ATCGTCGC	-0.0488
GGTACGAA	0.0474
ATTGAAGC	0.176
GGATGGCA	0.0842
ACCAGCCT	-0.189

Set 4 — target: CRIPT, C-terminal peptide; method: DHFR complementation, deep sequencing; medium: yeast; relative to: wild type; reading: higher = weaker binding
Notes: single substitutions, model-inferred values
Starting sequence: ERBIN, PDZ domain 1 (human); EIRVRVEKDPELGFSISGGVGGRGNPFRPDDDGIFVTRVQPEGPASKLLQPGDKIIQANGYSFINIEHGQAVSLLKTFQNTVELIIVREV; partner TKNYKQTSV
Variant	binding free energy change
D30V	0.357 kcal/mol
T37P	0.223 kcal/mol
G24V	1.14 kcal/mol
G52H	0.94 kcal/mol
Y61H	-0.0145 kcal/mol
R23T	-0.575 kcal/mol
N59S	0.171 kcal/mol
N25R	0.902 kcal/mol
F27H	0.796 kcal/mol
L75Q	1.04 kcal/mol
D32Q	0.246 kcal/mol
L48Q	0.142 kcal/mol
S46K	0.0187 kcal/mol
L74F	-0.0144 kcal/mol

Set 5 — method: RNA Bind-n-Seq; form: RNA; medium: in vitro; concentration: 20 nM; notes: 6-mer, flanks averaged, single round; with: 150 mM LiCl; relative to: input library; reading: higher = stronger binding
Target: TAR DNA-binding protein 43, full length, His tag (TARDBP, Homo sapiens, UniProt Q13148, residues 1-414)
Strand	6-mer enrichment (R)
CAAAGG	0.865
UAGGUC	0.89
CACAAU	0.907
AUCGAU	0.823
GUAUUU	1.15
CGGUUA	0.919
GGAAAC	0.86
CACCCC	1.16
ACCGAU	0.821
CGAUCC	0.823
UGGGUG	1.68
CAGAUA	0.816
ACAGAU	0.808
AACCUA	0.829
GCAAGC	0.891
CGUUGC	0.935
UUAUGU	1.29
GACCCU	0.969
AAGGAG	0.984

Set 6 — method: protein-binding microarray; form: double-stranded DNA, one strand shown; medium: in vitro; concentration: not given; reading: higher = stronger binding
Target: Max-binding protein MNT, bHLH-zipper, MAX partner unstated (MNT, Homo sapiens, UniProt Q99583, residues 220-300)
Notes: k-mer, scored over probes, only values ≥0.25
Residues (chain): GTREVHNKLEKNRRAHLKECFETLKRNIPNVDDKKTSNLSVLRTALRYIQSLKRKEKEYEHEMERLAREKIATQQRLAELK
Strand	E-score
AGCACGCC	0.38
ACCCTCGT	0.255
GTGACTCA	0.282
ACATGGCT	0.315
AAAACATG	0.288
CATGTATC	0.298
CAGGCATG	0.322
ACGCCGTG	0.259
CCACGCCC	0.341
ATGTGCTC	0.391
CACCTGCA	0.269
AGTCCATG	0.274
CTTGGGGA	0.321
ATGCTGCA	0.268
GCGCGTGA	0.393
ACGCTGTC	0.298
ATGTGTCG	0.284
CAACCCAC	0.275
GCACGACA	0.27
ACATGGCG	0.356

Set 7 — target: CCND2, cyclin fold, Cln2 fusion (human); method: yeast growth competition, sequencing; medium: yeast; notes: weak parent motif; relative to: not given; reading: higher = stronger binding
Starting sequence: PPP1R3F docking peptide (human); VAPRRVLFADEAL; partner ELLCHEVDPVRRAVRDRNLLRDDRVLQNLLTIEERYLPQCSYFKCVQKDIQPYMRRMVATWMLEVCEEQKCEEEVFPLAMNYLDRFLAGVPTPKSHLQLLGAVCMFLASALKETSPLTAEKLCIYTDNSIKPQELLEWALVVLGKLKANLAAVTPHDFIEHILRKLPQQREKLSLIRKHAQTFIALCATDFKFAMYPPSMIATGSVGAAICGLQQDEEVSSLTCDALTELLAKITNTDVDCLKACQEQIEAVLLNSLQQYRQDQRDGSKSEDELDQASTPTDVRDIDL
Variant	normalised enrichment score
VAPARVLFADEAL [R4A]	0.0514
VAPRAVLFADEAL [R5A]	0.39
VAPRKVLLADEAL [R5K F8L]	0.22
VAPRRVLFAAEAL [D10A]	0.143
VAPRRVAFADEAL [L7A]	-0.194
VAPRRVLLADEAL [F8L]	0.341
VAPRRVLFADEAA [L13A]	-0.211
VAPRAVAFADEAL [R5A L7A]	-0.0165

Set 8 — method: RNA Bind-n-Seq; form: RNA; medium: in vitro; concentration: 365 nM; relative to: no-protein control; reading: higher = stronger binding
Target: RNA binding protein fox-1 homolog 2, RRM domain, GST-SBP tag (RBFOX2, Homo sapiens, UniProt O43251-10, residues 100-194)
Notes: natural RNA segment, single round, ends assumed
Constant ends, left off below: GGGAGUUCUACAGUCCGACGAUC … UGGAAUUCUCGGGUGCCAA
Construct (chain): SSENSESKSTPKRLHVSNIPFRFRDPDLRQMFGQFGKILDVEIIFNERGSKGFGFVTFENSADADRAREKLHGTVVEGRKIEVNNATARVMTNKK
Strand	RBNS enrichment (R)
AGGCUGGGCCACUCUGGUUAUGCACAGUCAGGCAAACUGUCCUUGUAGACGAGUCCCCGACUCUGGGAUACAUGAGGAUCAAUGCCCGUUUUCUCCCCGUGUGCUUUCCU	0.323
CUGUGGGGUUUGUUAACAUGGAACUACUCAGCUUUCUUUCAGUCAACCCAUAAGCAAAUCAGAUAACCCACUGACUAUGAGAAUUACUUUAUAUAGAUAAUUCUUGACUG	0.396
AAGUCUUUGUUUUUGAAAAACAAAAAUCAAAAACAGUAACUAUUUUAUAUGGAAAUGUGUCUUGAUAAUAUUACCUAUUAAAUGUGUAUUUAUAGUCCCUCCUAUCAAAC	0.498
AAUAAGAUUAAUGACCUGAAUUGAAAGAGAAUUUGGAGCCAGGAUGGGUCUCCAUUCUGUGUGGCACCUUGAUUGGAAAAUAAUAUCCAUGCGUUUCUUCCACUGAGUCU	0.517
GCUGUGACAGUGACAGCUCAUUUCUCAGGCCUGGUUUGCUUUGAUGUAUUACUCUUCUUCUUUUAAUUUAUGUUAGAACGAGAAAAGCUUAAUACAACAGGUGCCCAGAA	0.22
UAUUCGAUCUGUGCCAUGACUCUUCUGAAUGUUUGGACAGGUUAGAGUUGGGGACCCCUGUUGGCCACUUGUUGACCUCUCAUAGUGGUGCUUGGGCCAGGUCUUCUCAA	0.684
GGGAGAGGCUGAGGACUUAAAAUAUUCCUGCAUUUGUGAAAUGAUGGUGAAAGCACUGCUGCCCAGCCUCCAAGCUCCAUCUCCACUCCAGAUUUUUUACAGCUGCCUGC	0.668
UGUUUCUACUGCUUUAGUUUUUUUUAAAGUUCUCCAGUGUCCCCAAGAGGUAUUAGAAUCUUGCUGUACCCAAGCAAGACGUUAAUUUUUCUUUUAACUGUUUUGGGGAG	0.554
AAAUGCCACUGUGAUCCACAGCUGAAGUUGUUUCUAAUUGCCUAAAGGCAGUCUCUGUGUCUGGAGCUUCAAAGAGACAGGCAGACCUGCACUAAUUCCCUUCUUCCUCU	0.35
UUUUAUUUUAUCUGCUAUUUCAGUUCAUCUAAAUCUUGUGUUCUGUACAUGUGAUGUUUGACUGUACCAUCGACUGUUAUGGAAGUUCAGCGUUGUAUGUCUCUCUACAC	0.616
UUCUCUUCCCGCAGACAGUCCCACACAUCAGCCUCUACUCCUUCCACCACUGCAAACCCCCAAAUUGUAUGGAAGCCCCACACAGAUAGGGCCAAGCUAUAGAGGCAUGA	0.578
UGUGGGUCAACCAUGAAGAUGUGGCAUUGCAGACGGGGGAACAUGUGGAUGCAUGGCUAUCGCCCUGAACAGUCCCUGCAGCUACUUGUGUUAACACAGAACUGAUGUUU	0.221

A few entries again (set 3):
Strand	E-score
ATCCCGGG	-0.298
ATGCCGTA	-0.0453
ACAGTTAT	0.293
GTTAAATA	0.334
CAGCGGAG	-0.288
CACTTTCC	-0.00993
GCAAGCAC	-0.137
ATTTGCTC	0.158
GGTACGAA	0.0474
CACGATGA	0.0553
ATCGTTGC	-0.0174
ATCGTCGC	-0.0488
AATAGCTG	0.0462
ACCAGCCT	-0.189
ATTGAAGC	0.176
GGATGGCA	0.0842
GGCAAATA	0.252
